Measurements gathered from unrelated publications.
Values joined by “and” are separate records of one study, mostly repeats; a detail may differ. ± marks the error that the study gave.
folP: Dihydropteroate synthase (folP, Bacteria, UniProt P0AC13)
TARDBP aggregated: TAR DNA-binding protein 43, aggregated (TARDBP, Homo sapiens, UniProt Q13148)
T1: RNA aptamer; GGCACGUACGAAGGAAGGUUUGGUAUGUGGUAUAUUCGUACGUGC
T2: RNA aptamer; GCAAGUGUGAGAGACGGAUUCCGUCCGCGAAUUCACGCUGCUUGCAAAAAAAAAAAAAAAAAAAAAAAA

Cc1ccc2c(c1)N(C)C=CC2=Cc1sc2ccccc2[n+]1C  Kd (T1, RNA aptamer; fluorescence titration): 0.5 nM
Cn1c(=O)n(C2CCC(=O)NC2=O)c2ccc(C3CCN(CC(=O)Nc4cccc(CS(=O)(=O)N5CC[C@H](Nc6cccc(-c7sc(C(=O)O)c(OCC(=O)O)c7Cl)c6)CC5(C)C)c4)CC3)cc21 (some centres unmarked)  BLI binding response (PTPN1 (Homo sapiens, UniProt P18031); degrader, bio-layer interferometry; 15.6 nM, biotinylated protein immobilised; higher = more binding): 0.043 a.u.
CC[C@H](C)[C@H](NC(=O)[C@H](Cc1c[nH]cn1)NC(C)=O)C(=O)N[C@@H](CCCCN)C(=O)N[C@H](C(=O)N[C@@H](Cc1c[nH]cn1)C(=O)N[C@@H](CC(C)C)C(=O)N[C@@H](CC(=O)O)C(=O)N[C@@H](CCC(=O)O)C(=O)N[C@@H](CCC(=O)O)C(=O)N[C@H](C(=O)NCC(=O)N[C@@H](CCC(=O)O)C(=O)N[C@@H](CCCCN)C(=O)N[C@H](C(=O)N[C@@H](CO)C(=O)N[C@H](C(=O)N[C@H](C(=O)N[C@@H](CC(C)C)C(=O)N[C@@H](CC(=O)O)C(=O)N[C@H](C(N)=O)C(C)C)[C@@H](C)O)[C@@H](C)CC)[C@@H](C)O)[C@@H](C)O)[C@@H](C)O  binding stoichiometry (Kelch-like ECH-associated protein 1, Kelch domain (KEAP1, Homo sapiens, UniProt Q14145); ITC; concentration not given): 0.96
O=C(O)C(F)(F)F.O=C1N(c2cccc(CN3CCc4cc5c(cc4C3)OCO5)c2)C(=O)C12CCCCC2  activity vs control (DPP9 (Homo sapiens, UniProt Q86TI2); enzyme activity, inhibitor; 5 µM): 74%
C/C=C/C(=O)Nc1ccc2nc(NCCCCCN(C)C)nc(NCCCCCCN(C)C)c2c1  inhibition (EHMT2 (Homo sapiens, UniProt Q96KQ7); enzyme activity, inhibitor, radiometric; 50 µM): 55%
C#CCOC(=O)[C@@]1(C)C=C(C(=O)OC(C)(C)C)C(=O)CC1  normalized kinase activity (MAPK8 (Homo sapiens, UniProt P45983); enzyme activity, D-SENSOR; 44.44 µM, mean of replicates): 0.737
CCCCCC(O)/C=C/C=O (centres unmarked)  isoTOP-ABPP competition ratio (IDH1 (Homo sapiens, UniProt O75874); competitive isoTOP-ABPP; proteome, soluble, MDA-MB-231; 100 µM, 60 min, together with: iodoacetamide probe; relative to: DMSO over compound-treated, higher = stronger cysteine blockade): 1.3
O=C(N[C@@H](Cc1ccc(OCCCCC2CCNCC2)cc1)C(=O)O)c1nc2ccccc2o1.O=C(O)C(F)(F)F  fibrinogen binding (Integrin alpha-IIb/beta-3 (Homo sapiens, UniProt P05106+P08514); inhibitor, flow cytometry; washed platelets, human; 360 nM, together with: ADP and Alexa647-fibrinogen; relative to: untreated): 0.3
Nc1nc2[nH]nc(CC(=O)O)c(=O)c2c(=O)[nH]1  melting temperature shift (folP; CETSA HiBiT; Escherichia coli, cell lysate; concentration not given; relative to: DMSO): 22.5 °C
CC(C)C[C@@H]1NC(=O)[C@@H]2CSSC[C@@H](C(=O)NCC(=O)O)NC(=O)[C@H](Cc3ccccc3)NC(=O)CNC(=O)[C@H](CC(N)=O)NC(=O)[C@@H]3CCCN3C(=O)CNC(=O)[C@@H]3CSSC[C@H](NC(=O)[C@H](CCCNC(=N)N)NC(=O)[C@@H]4CCCN4C(=O)[C@H](CCCNC(=N)N)NC(=O)[C@H](CCCCN)NC(=O)[C@H](C(C)C)NC(=O)[C@H](C(C)C)NC(=O)[C@H](CC(N)=O)NC(=O)[C@H](C(C)C)NC(=O)[C@H](CO)NC(=O)[C@H](CCC(N)=O)NC(=O)[C@@H](NC(=O)CN)CSSC[C@H](NC(=O)CNC(=O)[C@H](C)NC1=O)C(=O)N[C@@H](C(C)C)C(=O)N3)C(=O)N[C@@H](CCCCN)C(=O)N[C@@H](CCC(N)=O)C(=O)N[C@@H](CC(=O)O)C(=O)N[C@@H](CO)C(=O)N[C@@H](CC(=O)O)C(=O)N2  kon (Low-density lipoprotein receptor-related protein 6, E1 domain (LRP6, Homo sapiens, UniProt O75581); binding, SPR; pH 7.5): 2.31e+06 ± 400000 M⁻¹ s⁻¹
O=C1c2sc(-c3ccc(N4CCC(CO)CC4)nc3F)nc2CCN1c1cccnc1  specific binding (TARDBP aggregated; radioligand binding; control brain sarkosyl-insoluble extract; 1.8 nM): -0.005 nM
CNc1cc(N)c(C(N)=O)c[n+]1C  dissociation half-life (Nicotinamide N-methyltransferase, SAM-bound (Rattus norvegicus, UniProt A0ABK0M0V0); product complex binding, surface plasmon resonance; 37 °C, together with: SAM): 15 min
O=C1c2sc(-c3ccc(N4CCC(F)C4)nc3F)nc2CCN1c1cccnc1 (centres unmarked)  specific binding (TARDBP aggregated; radioligand binding; control brain sarkosyl-insoluble extract; 26.56 nM): 0.043 nM
CC(CC(=O)O)c1n[nH]c2nc(N)[nH]c(=O)c2c1=O (centres unmarked)  target engagement efficiency (folP; CETSA HiBiT; Escherichia coli, whole cells; concentration not given; relative to: whole cell over lysate ΔTm): 5.2%
Cc1ccc2c(c1)N(C)C=CC2=Cc1sc2ccccc2[n+]1CC(=O)NCCOCCOCCOCCNC(=O)CCCC[C@@H]1SC[C@@H]2NC(=O)N[C@@H]21  Kd (T1, RNA aptamer; fluorescence titration): 11.3 nM
CCCCCC=CC=C1C(=O)C=CC1CC=CCCCC(=O)O (centres unmarked)  isoTOP-ABPP competition ratio (Bridging integrator 3 (BIN3, Homo sapiens, UniProt Q9NQY0); competitive isoTOP-ABPP, item: BIN3 cysteine peptide; Ramos soluble proteome; 100 µM, together with: iodoacetamide probe; relative to: DMSO over compound-treated, higher = stronger cysteine blockade): 2.3
Cc1cn([C@H]2C[C@H](n3cc([C@]4(O)CC[C@H]5[C@@H]6CCc7cc(O)ccc7[C@H]6CC[C@@]54C)nn3)[C@@H](CO)O2)c(=O)[nH]c1=O  ΔTm (Protein Mdm4 (MDM4, Homo sapiens, UniProt O15151); thermal stability, DSF; 30 µM): -0.06 °C
Cn1nc(C(=O)O)c(=O)c2c(=O)[nH]c(N)nc21  target engagement efficiency (folP; CETSA HiBiT; Escherichia coli, whole cells; concentration not given; relative to: whole cell over lysate ΔTm): 14%
CC(C)Oc1cc(Cl)ccc1CNc1cc(-c2ccccc2)nc2ncnn12  cAMP luminescence (GPR3 (Homo sapiens, UniProt P46089, R152A); cAMP level, cAMP GloSensor; 100 nM; higher = more cAMP): 32000 a.u. and 31200 a.u. and 33500 a.u. and 22900 a.u.
Cn1nc(CC(=O)O)c(=O)c2c(=O)[nH]c(N)nc21  melting temperature shift (folP; CETSA HiBiT; Escherichia coli, whole cells; concentration not given; relative to: DMSO): 9.27 °C
CCCCCC[C@H](NC(=O)[C@H](CCC(=O)O)NC(=O)[C@H](CCCNC(=N)N)NC(=O)[C@H](C)NC(=O)[C@H](Cc1c[nH]c2ccccc12)NC(=O)[C@H](CCC(=O)O)NC(=O)[C@H](CCC(=O)O)NC(=O)[C@H](CCC(=O)O)NC(C)=O)C(=O)NCC(=O)N[C@@H](C)C(=O)N[C@@H](CCC(N)=O)C(=O)N[C@@H](CC(C)C)C(=O)N[C@@H](CCCNC(=N)N)C(=O)N[C@@H](CCCNC(=N)N)C(=O)N[C@@H](C)C(=O)N[C@@H](C)C(=O)N[C@@H](CC(=O)O)C(=O)N[C@@H](CC(=O)O)C(=O)N[C@@H](CC(C)C)C(=O)N[C@@H](CC(N)=O)C(=O)N[C@@H](C)C(=O)N[C@@H](CCC(N)=O)C(=O)N[C@@H](Cc1ccc(O)cc1)C(=O)N[C@@H](CCC(=O)O)C(=O)N[C@@H](CCCNC(=N)N)C(=O)N[C@@H](CCCNC(=N)N)C(=O)N[C@@H](CCCNC(=N)N)C(N)=O  koff (Induced myeloid leukemia cell differentiation protein Mcl-1 homolog, residues 152-308 (Mus musculus, UniProt P97287); binding, SPR; 0.2% DMSO): 0.0087 s⁻¹
C[C@@H](Nc1nc(N[C@H](C)C(F)(F)F)nc(-c2cccc(Cl)n2)n1)C(F)(F)F  maximum inhibition (Isocitrate dehydrogenase [NADP], mitochondrial, heterodimer with wild-type (IDH2, Homo sapiens, UniProt P48735, R140Q); forward reaction; 16 h preincubation, wild type): 59.2 ± 1.9%
CCC1Sc2ccc(S(=O)(=O)CCC(=O)Nc3cccc4ccccc34)cc2NC1=O (centres unmarked)  remaining current (P2X purinoceptor 7 (Ailuropoda melanoleuca, UniProt G1M6C4); ATP-evoked current, inhibitor, whole-cell patch clamp; HEK293 transfected; 0.3 µM, wild type): 84.7%
Fc1ccc(Nc2nc(NCc3ncccn3)nc(Nc3ccccc3)n2)cc1  Kd (T2, RNA aptamer; SPR; 25 °C, read off a plot): 11600 nM
COc1cc(Nc2nccc(-c3cnn4nc(OC)ccc34)n2)cc(C(F)(F)F)c1  remaining binding (FLT3 (Homo sapiens, UniProt P36888, K663Q); binding; 1 µM): 96%
CC(C(=O)O)c1n[nH]c2nc(N)[nH]c(=O)c2c1=O (centres unmarked)  melting temperature (folP; CETSA HiBiT; Escherichia coli, whole cells): 60.2 °C
CC[C@@H](C)[C@@H](NC(=O)[C@@H](Cc1ccc(O)cc1)NC(=O)[C@H]1CCCN1C(=O)[C@@H](CCCNC(=N)N)NC(=O)[C@H](N)Cc1c[nH]cn1)C(=O)N[C@H](C)C(=O)N[C@H](Cc1c[nH]cn1)C(=O)N[C@H](CCCNC(=N)N)C(=O)N[C@@H](C(=O)N[C@H](Cc1ccc(O)cc1)C(=O)N[C@H](CO)C(=O)N[C@H](Cc1ccccc1)C(=O)NCC(=O)NCC(=O)NCC(=O)N[C@@H](CCCCNC(=O)CCCC[C@@H]1SC[C@@H]2NC(=O)N[C@@H]21)C(N)=O)C(C)C  binding rate (CD274 (Homo sapiens, UniProt Q9NZQ7); flow cytometry; hPD-L1-expressing cells; concentration not given): 15% and 14.7%
COc1c(O[C@@H]2O[C@H](C(=O)O)[C@@H](O)[C@H](O)[C@H]2O)cc(O)c2c(=O)cc(-c3ccccc3)oc12  binding index (COMT (Homo sapiens, UniProt P21964); UV; relative to: native over denatured target): 0.35
CC(C)[C@@H]1NC(=O)[C@H](Cc2ccccc2)NC(=O)CSC[C@@H](C(N)=O)NC(=O)[C@H](CCC(=O)O)NC(=O)[C@H](CO)NC(=O)[C@H](Cc2c[nH]c3cccc(Cl)c23)NC(=O)[C@H](C2CCCCC2)NC(=O)[C@H](C(C)C)NC(=O)[C@H](Cc2ccc(O)cc2)NC(=O)[C@H](CC(=O)O)NC(=O)[C@H](Cc2c[nH]c3ccccc23)NC(=O)[C@H](Cc2ccc(N)nc2)NC(=O)[C@H](Cc2c[nH]c3ccc(Cl)cc23)NC(=O)[C@H](CCC(=O)O)NC1=O  remaining activity (Interleukin-1 receptor-like 2 (IL1RL2, Homo sapiens, UniProt Q9HB29); reporter gene (SEAP), inhibitor, HEK-Blue IL-36R reporter; HEK-Blue IL-36R cells; 3.7 µM, 6 h, together with: IL-36β 0.3 ng/mL): 25.1%
Cn1nnnc1SCc1nn(C)c2nc(N)[nH]c(=O)c2c1=O  melting temperature shift (folP; CETSA HiBiT; Escherichia coli, cell lysate; concentration not given; relative to: DMSO): 12.5 °C
CCc1occc(=O)c1[O-].[Cl-].[W+4].c1cc[cH-]c1.c1cc[cH-]c1  Gibbs free energy change (Albumin (ALB, Homo sapiens, UniProt P02768); binding, fluorescence quenching; 310 K): -5.98 kcal/mol
N#CN1CC[C@H](C(=O)Nc2nc3c(s2)CN(C(=O)Cn2cc(CNC(=O)CCCC[C@@H]4SC[C@@H]5NC(=O)N[C@@H]54)nn2)CC3)C1  iBAQ abundance (UBA1 (Homo sapiens, UniProt P22314); probe binding, affinity probe, neutravidin pull-down LC-MS/MS; HEK293T, cell lysate; 5 µM, 1 h, single replicate, unit not given; higher = more pulled down): 1.35e+06 and 4.36e+06 and 4.06e+06
COc1ccccc1-c1ccncc1C(=O)Nc1nnc(OCc2ccc(Cl)cc2)s1  remaining activity (RecQ-like DNA helicase BLM, residues 636–1298 (BLM, Homo sapiens, UniProt P54132); ATPase activity, ADP-Glo; 0.95 µM, 1 h): 88%
Cc1n[nH]c2nc(N)[nH]c(=O)c2c1=O  target engagement efficiency (folP; CETSA HiBiT; Escherichia coli, whole cells; concentration not given; relative to: whole cell over lysate ΔTm): 8.76%
COc1ncc2nc(C)n(Cc3ncc(S(N)(=O)=O)cc3F)c2c1-c1ccccc1  activation (HTR1B (Homo sapiens, UniProt P28222); agonist, cell-based; 10 µM): -0.483%
